# Assay results collected from several papers.
# Protocols differ between the studies behind these lines. ± gives the spread as reported. Ends that are not written are not given here. * marks the point of attachment.
Molecule,test,test system,setting,scale,endpoint,result
COc1cccc2c1C(=O)c1c(O)c3c(c(O)c1C2=O)C[C@@](O)(C(=O)CO)C[C@@H]3O[C@H]1C[C@H](N)[C@H](O)[C@H](C)O1,,"BALB/c nude mice, HCT-8/ADR xenograft","intravenous, 2 mg/kg every two days, 22 d",,tumour growth inhibition,71.8%
CC(=O)O[C@@]12CO[C@@H]1C[C@H](O)[C@@]1(C)C(=O)[C@H](O)C3=C(C)[C@@H](OC(=O)[C@H](O)[C@@H](NC(=O)OC(C)(C)C)c4ccccc4)C[C@@](O)([C@@H](OC(=O)c4ccccc4)[C@H]21)C3(C)C,,mice bearing PC-3 xenografts,"5 mg/kg once weekly, 25 days after inoculation, treated 3 weeks",,tumour volume,197 ± 44.8 mm3
CCN(CC)c1ccc2nc3ccc(N=Nc4ccc(N(C)CCCC(=O)NCCCC[C@@H](NC(=O)CNC(=O)[C@H](CCCNC(=N)N)NC(=O)[C@@H](NC(=O)CNC(=O)[C@H](CC(C)C)NC(=O)[C@@H]5CCCN5C(=O)CNC(=O)CCCCC[N+]5=C(C=CC=CC=C6N(CC)c7ccc8c(S(=O)(=O)[O-])cc(S(=O)(=O)O)cc8c7C6(C)C)C(C)(C)c6c5ccc5c(S(=O)(=O)[O-])cc(S(=O)(=O)O)cc65)C(C)C)C(=O)NCC(=O)NCC(=O)NCCOCCOCCOCCOCCOCCOCCOCCOCCOCCOCCOCCO)cc4)cc3[n+](-c3ccccc3)c2c1,NIR fluorescence imaging,nude mice SCC-7 tumour,"iv, 10 nmol, 2 h",relative to: muscle,tumour to background ratio,5.55 ± 0.75
COc1cccc2c1C(=O)c1c(O)c3c(c(O)c1C2=O)C[C@@](O)(C(=O)CO)C[C@@H]3O[C@H]1C[C@H](N)[C@H](O)[C@H](C)O1,,"mice, BT-474 xenograft","intraperitoneal, 1.5 mg/kg, week 3, after second treatment",relative to: pretreatment,tumour volume,114 ± 61.8%
CC(C)Oc1ccc(S(=O)(=O)c2ccc(Oc3cc(OCC(N)=O)c(C(=O)C(Cl)Cl)cc3[N+](=O)[O-])cc2)cc1,,"NCI-H1299, female BALB/c nude mice, xenograft","intraperitoneal, 6 mg/kg once daily, 21 days",,tumour growth inhibition,66.6%
CCN(CC)CCCC(C)Nc1ccnc2cc(Cl)ccc12 (stereo not shown),,"nude mice, ECa-109 xenograft","intraperitoneal, 60 mg/kg every other day, 2 weeks, added: sulforaphane 5 mg/kg",,tumour weight,0.94 ± 0.08 g
CCSSC[C@H](NC(=O)[C@H](CC(=O)O)NC(=O)[C@H](Cc1ccccc1)NC(=O)[C@H](CCC(=O)O)NC(=O)[C@@H](NC(C)=O)[C@@H](C)CC)C(=O)NCC(=O)N[C@@H](Cc1cn(CCCNC(=O)CCCCC[N+]2=C(/C=C/C=C/C=C3/N(C)c4ccc(S(=O)(=O)[O-])cc4C3(C)C)C(C)(C)c3cc(S(=O)(=O)O)ccc32)nn1)C(=O)NCc1ccc(C(=O)NCCCOc2cnc(C#N)nc2)cc1,,"BALB/c mice with CT26 tumour, CT26 tumour","intravenous, 5 nmol, day 16, added: anti-PD1 200 µg plus anti-CTLA4 100 µg",relative to: non-responders,tumour fluorescence,increased
COc1cccc2c1C(=O)c1c(O)c3c(c(O)c1C2=O)C[C@@](O)(C(=O)CO)C[C@@H]3O[C@H]1C[C@H](N)[C@H](O)[C@H](C)O1,,mice bearing T47D xenografts,"5 mg/kg once weekly, 13 days after inoculation, treated 2 weeks",,tumour volume,67.7 ± 9.07 mm3
CCN1C(=CC=CC=CC2=[N+](CCCCCC(=O)NCCN3C(=O)CC(SCCC(=O)NCCCC[C@H](NC(=O)CNC(=O)[C@H](Cc4c[nH]c5ccccc45)NC(=O)[C@H](CCCNC(=N)N)NC(=O)[C@@H](Cc4ccccc4)NC(=O)[C@H](Cc4c[nH]cn4)NC(=O)CCCc4ccccc4)C(N)=O)C3=O)c3ccc(S(=O)(=O)O)cc3C2(C)C)C(C)(C)c2cc(S(=O)(=O)[O-])ccc21 (stereo partly shown),in vivo fluorescence imaging,"nu/nu mice, A-375 xenograft, A-375 tumour, low MC1R","intravenous, 3 nmol/kg, 4 h",relative to: A-375/MC1R tumour,tumour fluorescence signal,decreased
Palmitoyl-PCSTSSMA (N-palmitoyl; Palmitoyl = CCCCCCCCCCCCCCCC(=O)*),,"AsPC-1, male SCID mice, subcutaneous AsPC-1 xenograft","intratumoral, 500 µg/mouse/day, 3 weeks, PBS with 80% DMSO vehicle",,tumour volume,154 ± 27.1 mm³

# For quick reference, copied from above:
Molecule,test,test system,setting,scale,endpoint,result
COc1cccc2c1C(=O)c1c(O)c3c(c(O)c1C2=O)C[C@@](O)(C(=O)CO)C[C@@H]3O[C@H]1C[C@H](N)[C@H](O)[C@H](C)O1,,"BALB/c nude mice, HCT-8/ADR xenograft","intravenous, 2 mg/kg every two days, 22 d",,tumour growth inhibition,71.8%
